Results from different studies.
Protocols differ between the studies behind these lines. ± marks the error that the study gave.
CTSL: Procathepsin L (CTSL, Homo sapiens, UniProt P07711)
Chain of UniProt P07711 (whole entry, looked up): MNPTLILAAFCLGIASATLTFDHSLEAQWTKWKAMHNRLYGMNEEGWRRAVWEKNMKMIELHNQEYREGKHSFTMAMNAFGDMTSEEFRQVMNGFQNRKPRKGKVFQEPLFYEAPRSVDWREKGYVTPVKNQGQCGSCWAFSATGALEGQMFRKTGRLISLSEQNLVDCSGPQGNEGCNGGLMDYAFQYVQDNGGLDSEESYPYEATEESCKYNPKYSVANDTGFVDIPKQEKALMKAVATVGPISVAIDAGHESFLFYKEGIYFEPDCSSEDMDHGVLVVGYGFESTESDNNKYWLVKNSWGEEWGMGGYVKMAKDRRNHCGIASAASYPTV
CYP2D6: Cytochrome P450 2D6 (CYP2D6, Homo sapiens, UniProt P10635)
Chain of UniProt P10635 (whole entry, looked up): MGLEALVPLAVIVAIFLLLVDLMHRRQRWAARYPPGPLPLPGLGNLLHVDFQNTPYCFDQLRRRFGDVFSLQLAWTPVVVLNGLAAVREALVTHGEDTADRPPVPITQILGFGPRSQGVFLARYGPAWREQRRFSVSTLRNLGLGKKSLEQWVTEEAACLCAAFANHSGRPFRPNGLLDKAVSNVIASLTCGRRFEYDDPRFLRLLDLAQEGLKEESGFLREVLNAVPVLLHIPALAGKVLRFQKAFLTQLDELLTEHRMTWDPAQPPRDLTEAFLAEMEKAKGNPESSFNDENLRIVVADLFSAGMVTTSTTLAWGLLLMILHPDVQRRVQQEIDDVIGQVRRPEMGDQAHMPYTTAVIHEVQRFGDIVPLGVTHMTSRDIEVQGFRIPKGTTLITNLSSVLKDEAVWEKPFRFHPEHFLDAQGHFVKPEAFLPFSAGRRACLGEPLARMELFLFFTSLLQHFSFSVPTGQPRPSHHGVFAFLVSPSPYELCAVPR
Mitogen-activated protein kinase 14: Mitogen-activated protein kinase 14 (Rattus norvegicus, UniProt P70618)
Chain of UniProt P70618 (whole entry, looked up): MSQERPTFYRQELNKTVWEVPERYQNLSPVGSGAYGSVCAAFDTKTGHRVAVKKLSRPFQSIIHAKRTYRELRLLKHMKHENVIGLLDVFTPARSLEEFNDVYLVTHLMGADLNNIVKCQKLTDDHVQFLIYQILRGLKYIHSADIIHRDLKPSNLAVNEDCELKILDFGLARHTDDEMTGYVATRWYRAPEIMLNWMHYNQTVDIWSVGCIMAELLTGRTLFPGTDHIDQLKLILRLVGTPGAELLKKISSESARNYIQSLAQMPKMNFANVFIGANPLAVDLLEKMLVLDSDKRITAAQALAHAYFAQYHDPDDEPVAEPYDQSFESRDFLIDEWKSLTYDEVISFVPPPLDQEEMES
Chain of UniProt P43490 (whole entry, looked up): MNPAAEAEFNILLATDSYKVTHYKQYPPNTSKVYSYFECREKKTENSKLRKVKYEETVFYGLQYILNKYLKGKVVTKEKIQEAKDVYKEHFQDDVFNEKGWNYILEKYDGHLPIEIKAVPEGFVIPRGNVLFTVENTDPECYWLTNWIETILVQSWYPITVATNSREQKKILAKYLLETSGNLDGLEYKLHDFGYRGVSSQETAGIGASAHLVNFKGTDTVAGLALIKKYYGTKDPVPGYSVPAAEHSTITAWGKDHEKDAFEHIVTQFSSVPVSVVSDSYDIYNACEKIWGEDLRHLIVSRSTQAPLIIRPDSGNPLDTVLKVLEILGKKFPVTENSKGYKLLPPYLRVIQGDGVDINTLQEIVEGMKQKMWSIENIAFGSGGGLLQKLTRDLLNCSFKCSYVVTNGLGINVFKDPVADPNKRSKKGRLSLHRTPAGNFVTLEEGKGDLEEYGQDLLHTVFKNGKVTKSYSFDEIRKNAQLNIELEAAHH
Chain of UniProt P0A7E5 (whole entry, unmodified, looked up): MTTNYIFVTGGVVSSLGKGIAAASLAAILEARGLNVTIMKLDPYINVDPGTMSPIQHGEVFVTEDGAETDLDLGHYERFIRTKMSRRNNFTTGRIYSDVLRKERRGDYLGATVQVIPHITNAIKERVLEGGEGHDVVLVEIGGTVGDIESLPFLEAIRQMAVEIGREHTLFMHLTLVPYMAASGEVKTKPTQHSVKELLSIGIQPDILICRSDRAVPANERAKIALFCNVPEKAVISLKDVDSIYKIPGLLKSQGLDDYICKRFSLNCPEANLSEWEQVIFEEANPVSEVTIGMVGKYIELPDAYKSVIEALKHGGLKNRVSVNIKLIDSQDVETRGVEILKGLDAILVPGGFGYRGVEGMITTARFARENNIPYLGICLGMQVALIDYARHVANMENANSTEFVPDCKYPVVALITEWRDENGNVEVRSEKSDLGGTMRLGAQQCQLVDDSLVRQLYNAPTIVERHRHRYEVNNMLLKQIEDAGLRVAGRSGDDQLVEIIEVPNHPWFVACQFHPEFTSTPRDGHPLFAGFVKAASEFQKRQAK
Chain of UniProt P14618 (whole entry, looked up): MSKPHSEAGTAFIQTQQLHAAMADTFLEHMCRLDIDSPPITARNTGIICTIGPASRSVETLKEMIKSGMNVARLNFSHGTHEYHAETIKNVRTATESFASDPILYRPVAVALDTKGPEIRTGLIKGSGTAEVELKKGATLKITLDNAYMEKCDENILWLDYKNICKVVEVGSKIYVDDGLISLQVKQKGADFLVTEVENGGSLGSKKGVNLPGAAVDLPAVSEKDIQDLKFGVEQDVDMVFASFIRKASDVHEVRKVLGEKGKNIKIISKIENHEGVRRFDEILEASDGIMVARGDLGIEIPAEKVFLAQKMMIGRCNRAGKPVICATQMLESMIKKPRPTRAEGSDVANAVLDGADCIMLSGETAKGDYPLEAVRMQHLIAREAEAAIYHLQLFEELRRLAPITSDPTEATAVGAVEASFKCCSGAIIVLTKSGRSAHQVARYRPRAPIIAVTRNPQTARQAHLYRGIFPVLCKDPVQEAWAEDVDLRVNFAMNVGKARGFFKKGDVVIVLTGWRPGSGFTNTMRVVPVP
Chain of UniProt O95931 (whole entry, looked up): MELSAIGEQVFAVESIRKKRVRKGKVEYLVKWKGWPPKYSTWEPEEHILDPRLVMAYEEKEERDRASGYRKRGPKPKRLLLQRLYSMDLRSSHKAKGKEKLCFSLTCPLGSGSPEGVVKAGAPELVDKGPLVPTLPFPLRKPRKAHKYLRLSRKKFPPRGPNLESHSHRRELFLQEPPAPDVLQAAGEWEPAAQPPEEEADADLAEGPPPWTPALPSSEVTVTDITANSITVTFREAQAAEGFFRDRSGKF
Chain of UniProt P25084 (whole entry, looked up): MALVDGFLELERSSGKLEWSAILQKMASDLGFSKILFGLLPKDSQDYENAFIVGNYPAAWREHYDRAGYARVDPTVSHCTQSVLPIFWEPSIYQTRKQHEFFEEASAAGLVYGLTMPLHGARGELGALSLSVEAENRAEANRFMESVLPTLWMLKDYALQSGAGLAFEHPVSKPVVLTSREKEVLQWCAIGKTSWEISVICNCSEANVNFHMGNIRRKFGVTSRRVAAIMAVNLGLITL
Chain of UniProt P81908 (whole entry, looked up): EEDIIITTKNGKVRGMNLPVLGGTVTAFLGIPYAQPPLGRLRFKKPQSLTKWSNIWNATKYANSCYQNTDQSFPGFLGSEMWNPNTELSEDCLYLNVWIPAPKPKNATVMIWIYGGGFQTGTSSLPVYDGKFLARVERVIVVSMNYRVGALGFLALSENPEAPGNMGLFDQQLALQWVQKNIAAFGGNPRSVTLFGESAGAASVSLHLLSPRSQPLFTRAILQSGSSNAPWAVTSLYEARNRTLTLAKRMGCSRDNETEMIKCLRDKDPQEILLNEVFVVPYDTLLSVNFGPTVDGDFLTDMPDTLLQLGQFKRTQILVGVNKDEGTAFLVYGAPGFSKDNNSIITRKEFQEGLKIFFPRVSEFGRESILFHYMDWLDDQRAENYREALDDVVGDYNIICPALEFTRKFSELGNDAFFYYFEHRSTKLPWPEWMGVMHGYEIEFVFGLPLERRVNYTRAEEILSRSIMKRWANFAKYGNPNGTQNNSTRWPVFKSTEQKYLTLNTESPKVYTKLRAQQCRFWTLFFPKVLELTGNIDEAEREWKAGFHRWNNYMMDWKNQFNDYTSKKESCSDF
Chain of UniProt Q9Y6L6 (whole entry, looked up): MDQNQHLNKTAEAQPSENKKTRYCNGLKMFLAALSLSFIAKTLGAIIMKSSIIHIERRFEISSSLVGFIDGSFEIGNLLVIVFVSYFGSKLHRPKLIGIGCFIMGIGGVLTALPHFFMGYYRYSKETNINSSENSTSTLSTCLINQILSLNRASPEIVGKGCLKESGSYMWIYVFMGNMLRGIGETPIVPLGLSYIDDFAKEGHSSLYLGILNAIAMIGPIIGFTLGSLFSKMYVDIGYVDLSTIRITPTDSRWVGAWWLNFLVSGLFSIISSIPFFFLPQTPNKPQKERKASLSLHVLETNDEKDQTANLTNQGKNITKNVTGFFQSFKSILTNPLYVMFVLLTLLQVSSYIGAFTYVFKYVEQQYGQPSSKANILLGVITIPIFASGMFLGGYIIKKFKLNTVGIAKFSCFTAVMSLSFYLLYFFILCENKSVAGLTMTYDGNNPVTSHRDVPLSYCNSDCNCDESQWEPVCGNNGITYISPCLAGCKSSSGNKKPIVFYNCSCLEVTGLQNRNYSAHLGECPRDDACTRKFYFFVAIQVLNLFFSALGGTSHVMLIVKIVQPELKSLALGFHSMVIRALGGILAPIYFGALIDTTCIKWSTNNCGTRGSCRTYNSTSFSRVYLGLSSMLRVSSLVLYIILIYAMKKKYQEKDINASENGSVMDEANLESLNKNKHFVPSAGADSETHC
Chain of UniProt P46116 (whole entry, looked up): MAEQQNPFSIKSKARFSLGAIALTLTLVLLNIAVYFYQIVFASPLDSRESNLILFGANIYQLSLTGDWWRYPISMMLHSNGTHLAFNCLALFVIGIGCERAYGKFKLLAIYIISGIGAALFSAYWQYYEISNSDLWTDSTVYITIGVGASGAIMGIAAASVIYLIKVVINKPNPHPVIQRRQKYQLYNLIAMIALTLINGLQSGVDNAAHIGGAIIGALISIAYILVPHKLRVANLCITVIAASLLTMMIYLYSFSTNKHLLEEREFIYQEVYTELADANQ

Structure (SMILES)	target	assay	system	setting	IC50 [µM]
O=C(Cn1nnc2ccccc21)Nc1ccccc1-c1cccs1	CTSL	enzyme activity, inhibitor, FRET	–	–	> 100
O=C(CN1CN(c2ccccc2)C2(CCN(C(=O)c3cnc4[nH]ncc4c3)CC2)C1=O)NCC(F)(F)F	CYP2D6	enzyme activity, inhibitor	–	–	16
CC[C@H](C)[C@H](NC(=O)[C@H](CC(C)C)NC(=O)[C@H](C)NC(=O)[C@@H]1CCCN1C(=O)[C@H](C)NC(=O)[C@H](CCCNC(=N)N)NC(=O)[C@@H]1CCCN1C(=O)[C@H](CCCNC(=N)N)NC(=O)[C@H](CCC(N)=O)NC(=O)[C@H](CCCCN)NC(=O)[C@@H]1CCCN1C(=O)[C@H](C)NC(=O)[C@@H](N)Cc1ccc(O)cc1)C(=O)N[C@H](C(=O)N1CCC[C@H]1C(=O)N[C@H](C(=O)O)[C@@H](C)O)[C@@H](C)CC	Mitogen-activated protein kinase 14	enzyme activity, inhibitor, fluorescence	–	pH 7.4	54
CCOC(=O)c1ccccc1-c1c2ccc(=O)cc-2oc2cc(OCCCCCCn3nnnc3C(NCc3ccccc3)c3ccc(Cl)cc3)ccc12 (stereo not shown)	Polyunsaturated fatty acid lipoxygenase ALOX15 (ALOX15, Homo sapiens, UniProt P16050)	enzyme activity, inhibitor, absorbance	–	–	53.4
O=C(Nc1cccs1)c1cccnc1	Nicotinamide phosphoribosyltransferase (NAMPT, Homo sapiens, UniProt P43490)	enzyme activity, inhibitor, fluorescence	–	–	48
COC(=O)c1ccc(COC(CN2CCN(C(=O)Nc3ccccc3C)CC2)c2ccc(Cl)cc2)cc1 (stereo not shown)	Lanosterol 14-alpha demethylase (ERG11, Candida albicans, UniProt P10613)	enzyme activity, inhibitor, mass spectrometry	–	–	0.824
O=C(CCc1ccc(Br)cc1)N[C@H]1CCOC1=O	Transcriptional activator protein LasR (lasR, Pseudomonas aeruginosa, UniProt P25084)	reporter gene, antagonist	Escherichia coli, JLD271 with LasR plasmid	with: OdDHL 5 nM	0.54
CN(C)C(=O)c1cncc(-c2cnc3[nH]cc(-c4cc(OS(=O)(=O)F)ccc4C#N)c3c2)c1	Tyrosine-protein kinase ABL1 (ABL1, Homo sapiens, UniProt P00519)	kinase activity, inhibitor, HTRF	–	1 h preincubation, with: ATP 20 µM	> 1
CC[C@H](C)[C@H](NC(=O)[C@H](CCCCN)NC(=O)[C@H](CC(C)C)NC(=O)[C@@H]1CCCN1C(=O)[C@@H]1CCCN1C(=O)[C@@H](NC(=O)[C@H](CCCCN)NC(=O)[C@H](CCCNC(=N)N)NC(=O)[C@@H](NC(=O)[C@H](CCC(N)=O)NC(=O)[C@H](C)NC(=O)[C@@H](N)Cc1ccc(O)cc1)C(C)C)C(C)C)C(=O)N1CCC[C@H]1C(=O)N[C@H](C(=O)N[C@@H](CO)C(=O)N[C@@H](CCCNC(=N)N)C(=O)O)C(C)C	Mitogen-activated protein kinase 14	enzyme activity, inhibitor, fluorescence	–	pH 7.4	59.9
O=S(=O)(N/N=C/c1ccc(OS(=O)(=O)c2ccc(Cl)cc2)cc1)c1ccc(Cl)cc1	Carbonic anhydrase 2 (CA2, Homo sapiens, UniProt P00918)	enzyme activity, inhibitor, absorbance	–	–	0.0567
CCN1CCC[C@@H]1CNC(=O)c1cc([N+](=O)[O-])c(N(C)C)cc1OC	uncharacterized protein (Apis mellifera, UniProt A0A7M6W5G5)	enzyme activity, inhibitor, Ellman	–	pH 7.4, 30 °C, with: 1 mM acetylthiocholine	19
C[C@@H]1COCCN1c1nc(NCc2cccnc2C(F)(F)F)c2cccnc2n1	human GABAA receptor	–	–	–	> 100
CC(C)C[C@H](NC(=O)[C@H](CCCCN)NC(=O)[C@H](CO)NC(=O)[C@H](CCCNC(=N)N)NC(=O)[C@H](C)NC(=O)[C@@H](N)Cc1ccc(O)cc1)C(=O)N[C@@H](CCCNC(=N)N)C(=O)N[C@@H](CCCCN)C(=O)N1CCC[C@H]1C(=O)N[C@@H](CCCCN)C(=O)N1CCC[C@H]1C(=O)N[C@H](C(=O)N1CCC[C@H]1C(=O)N[C@@H](CC(C)C)C(=O)N[C@@H](CCCNC(=N)N)C(=O)N[C@@H](CCCCN)C(=O)O)C(C)C	Mitogen-activated protein kinase 14	enzyme activity, inhibitor, fluorescence	–	pH 7.4	20.3
CNC(=O)C[C@H](Cc1ccc(F)cc1)NC(=O)[C@@H](Cc1ccc(Cl)cc1Cl)NC(=O)[C@H](N)Cc1ccccc1C#N	Furin (FURIN, Homo sapiens, UniProt P09958)	enzyme activity, inhibitor	–	–	> 10
COc1ccccc1C1SCC(=O)N1CCCN(C)C (stereo not shown)	uncharacterized protein (Apis mellifera, UniProt A0A7M6W5G5)	enzyme activity, inhibitor, Ellman	–	with: 1 mM acetylthiocholine	3.9
CC[C@H](C)[C@H](NC(=O)[C@H](CCCCN)NC(=O)[C@H](CC(C)C)NC(=O)[C@@H]1CCCN1C(=O)[C@H](CCCNC(=N)N)NC(=O)[C@@H]1CCCN1C(=O)[C@H](CCCCN)NC(=O)[C@@H](NC(=O)[C@H](CCCCN)NC(=O)[C@H](CC(N)=O)NC(=O)[C@H](CCCCN)NC(=O)[C@@H](NC(=O)[C@H](C)NC(=O)[C@@H](N)Cc1ccc(O)cc1)[C@@H](C)O)C(C)C)C(=O)N[C@H](C(=O)N[C@@H](CCCNC(=N)N)C(=O)O)[C@@H](C)CC	Mitogen-activated protein kinase 14	enzyme activity, inhibitor, fluorescence	–	pH 7.4	13.8

Structure (SMILES)	target	assay	system	setting	IC50 [µM]
Nc1ccn(C2OC(COP(=O)(O)OP(=O)(O)OP(=O)(O)O)C(O)C2(F)F)c(=O)n1 (stereo not shown)	pyrG (Escherichia coli, UniProt P0A7E5, C268A)	enzyme activity	–	with: 6.0 mM glutamine, 1.0 mM ATP, 0.20 mM UTP	9.6 ± 0.8
CC(C)C[C@H](NC(=O)[C@H](CCCNC(=N)N)NC(=O)[C@H](CC(C)C)NC(=O)[C@@H](NC(=O)[C@H](CC(N)=O)NC(=O)[C@H](CCCCN)NC(=O)[C@H](CCCCN)NC(=O)[C@H](CCCNC(=N)N)NC(=O)[C@H](CCCCN)NC(=O)[C@@H](NC(=O)[C@H](CCCCN)NC(=O)[C@H](CCC(=O)O)NC(=O)[C@H](C)NC(=O)[C@@H](N)Cc1ccc(O)cc1)C(C)C)C(C)C)C(=O)N[C@@H](CS)C(=O)N[C@@H](CS)C(=O)O	Mitogen-activated protein kinase 14	enzyme activity, inhibitor, fluorescence	–	pH 7.4	2.95
CN(C)CCCN1C(=O)CSC1c1cccc(Cl)c1 (stereo not shown)	uncharacterized protein (Anopheles gambiae, UniProt Q7QFG0)	enzyme activity, inhibitor, Ellman	–	with: 1 mM acetylthiocholine	7
CN(C)C(=O)On1nnc2ccccc21	CTSL	enzyme activity, inhibitor, FRET	–	–	> 100
CCC(C)C1OC2(CCC1C)CC1CC(C/C=C(\C)C(OC3CC(OC)C(OC4CC(OC)C(O)C(C)O4)C(C)O3)C(C)/C=C/C=C3\COC4C(O)C(C)=CC(C(=O)O1)C34O)O2 (stereo not shown)	Anoctamin-6 (ANO6, Homo sapiens, UniProt Q4KMQ2)	anion channel activity, inhibitor, YFP fluorescence quenching	FRT cells expressing ANO6	–	0.99 ± 0.36
CC[C@H](C)[C@H](NC(=O)[C@H](CC(C)C)NC(=O)[C@@H]1CCCN1C(=O)[C@H](CCC(=O)O)NC(=O)[C@@H]1CCCN1C(=O)[C@H](CCCNC(=N)N)NC(=O)[C@@H]1CCCN1C(=O)[C@H](CCCNC(=N)N)NC(=O)[C@H](CCC(N)=O)NC(=O)[C@H](CCCCN)NC(=O)[C@@H]1CCCN1C(=O)[C@H](C)NC(=O)[C@@H](N)Cc1ccc(O)cc1)C(=O)N[C@H](C(=O)N1CCC[C@H]1C(=O)N[C@H](C(=O)O)[C@@H](C)O)[C@@H](C)CC	Mitogen-activated protein kinase 14	enzyme activity, inhibitor, fluorescence	–	pH 7.4	34.4
Cc1ccc2c(n1)c(-c1cccc(S(C)(=O)=O)c1)c(C)n2C/C(F)=C/CN	CYP2D6	enzyme activity, inhibitor	human, liver microsomes	–	6.72
CC(C)C[C@H](NC(=O)[C@H]1O[C@@H]1C(=O)O)C(=O)NCCCCN=C(N)N	CTSL	enzyme activity, inhibitor	–	–	0.0064
CSCC[C@H](NC(=O)[C@@H](NC(=O)[C@H](Cc1c[nH]cn1)NC(=O)CNC(=O)[C@H](Cc1c[nH]cn1)NC(=O)[C@@H]1CCCN1C(=O)[C@H](C)N)C(C)C)C(=O)N[C@H](C(=O)N[C@@H](CCC(=O)O)C(=O)N[C@@H](CC(C)C)C(=O)O)C(C)C	HLA class I histocompatibility antigen, B alpha chain, allele B*18:01 (Homo sapiens, UniProt P01889)	peptide-MHC binding, radioligand competition binding	–	–	> 70
CC[C@H](C)[C@H](NC(=O)[C@H](CS)NC(=O)[C@H](CCCNC(=N)N)NC(=O)[C@H](Cc1ccccc1)NC(=O)[C@H](Cc1ccc(O)cc1)NC(=O)[C@@H]1CCCN1C(=O)[C@@H](NC(=O)[C@H](CS)NC(=O)[C@H](C)N)C(C)C)C(N)=O	Pyruvate kinase PKM (PKM, Homo sapiens, UniProt P14618)	enzyme activity, inhibitor, fluorometric	–	2 h, 37 °C, enzyme 500 nM	> 1000
O=c1[nH]c2ccccc2c(=O)o1	Rhomboid protease AarA (Providencia stuartii, UniProt P46116)	enzyme activity, inhibitor, fluorescence	–	–	16.1
O=C(O)CCn1c(=O)oc2cc(Cl)c(Cl)cc21	Solute carrier organic anion transporter family member 1B1 (SLCO1B1, Homo sapiens, UniProt Q9Y6L6)	inhibitor	–	median	> 50.1
CC(C)CN(CCCC[C@H](NC(=O)[C@H](CCCN1CCOCC1)NC(=O)[C@@H](NC(=O)[C@H](Cc1ccccc1)NC(=O)c1ccc(C(C)(C)C)cc1)C1CCC1)C(=O)N[C@@H](CO)C(N)=O)C1CC2CCC1C2 (stereo partly shown)	Chromobox protein homolog 7 (Homo sapiens, UniProt O95931)	ligand displacement, TR-FRET	–	–	6.6
CC[C@H](C)[C@H](NC(=O)[C@H](CCCNC(=N)N)NC(=O)[C@H](CC(C)C)NC(=O)CNC(=O)[C@H](CCCCN)NC(=O)[C@H](CCCCN)NC(=O)[C@H](CCCNC(=N)N)NC(=O)[C@H](CCCCN)NC(=O)[C@H](CCCCN)NC(=O)[C@H](CCCCN)NC(=O)[C@H](C)NC(=O)[C@@H]1CCCN1C(=O)[C@H](C)NC(=O)[C@@H](N)Cc1ccc(O)cc1)C(=O)N[C@@H](CCCCN)C(=O)NCC(=O)O	Mitogen-activated protein kinase 14	enzyme activity, inhibitor, fluorescence	–	pH 7.4	1.25
O=C(O)C(/C=C/c1ccc(Cl)cc1)=N\Nc1nc(-c2ccc(Cl)cc2)cs1	Cholinesterase (BCHE, Equus caballus, UniProt P81908)	enzyme activity, inhibitor	–	–	5.01
